Measurements from different studies.
Protocols differ between the studies behind these lines. ± gives the spread as reported.
Mitogen-activated protein kinase 14: Mitogen-activated protein kinase 14 (Rattus norvegicus, UniProt P70618)
CYP2D6: Cytochrome P450 2D6 (CYP2D6, Homo sapiens, UniProt P10635)
CA2: Carbonic anhydrase 2 (CA2, Homo sapiens, UniProt P00918)
CTSL: Procathepsin L (CTSL, Homo sapiens, UniProt P07711)

| SMILES | target | assay | test system | conditions | IC50 |
| --- | --- | --- | --- | --- | --- |
| CC[C@H](C)[C@H](NC(=O)[C@H](CC(C)C)NC(=O)[C@H](C)NC(=O)[C@H](CCC(=O)O)NC(=O)[C@H](C)NC(=O)[C@H](CCCNC(=N)N)NC(=O)[C@@H]1CCCN1C(=O)[C@H](CCCNC(=N)N)NC(=O)[C@H](CCC(N)=O)NC(=O)[C@H](CCCCN)NC(=O)[C@@H]1CCCN1C(=O)[C@H](C)NC(=O)[C@@H](N)Cc1ccc(O)cc1)C(=O)N[C@H](C(=O)N1CCC[C@H]1C(=O)N[C@H](C(=O)O)[C@@H](C)O)[C@@H](C)CC | Mitogen-activated protein kinase 14 | enzyme activity, inhibitor, fluorescence | – | pH 7.4 | 391 µM |
| Nc1ccn(C2OC(COP(=O)(O)OP(=O)(O)OP(=O)(O)O)C(O)C2(F)F)c(=O)n1 (centres unmarked) | pyrG (Escherichia coli, UniProt P0A7E5) | enzyme activity | – | together with: 6.0 mM glutamine, 1.0 mM ATP, 0.20 mM UTP | 7.3 µM |
| Cc1ccc(CNC(=O)c2ccn3c(-c4ccc(C#N)cc4)cnc3c2)cn1 | CYP2D6 | enzyme activity, inhibitor | – | – | > 10 µM |
| CC[C@H](C)[C@H](NC(=O)[C@H](C)NC(=O)[C@H](CC(C)C)NC(=O)[C@H](CCCCN)NC(=O)[C@H](CCCNC(=N)N)NC(=O)[C@H](CCCCN)NC(=O)[C@H](CCCCN)NC(=O)[C@@H](NC(=O)[C@H](CCCCN)NC(=O)[C@H](CC(N)=O)NC(=O)[C@H](CCCCN)NC(=O)[C@@H](NC(=O)[C@H](C)NC(=O)[C@@H](N)Cc1ccc(O)cc1)[C@@H](C)O)C(C)C)C(=O)N[C@H](C(=O)N[C@@H](CCCNC(=N)N)C(=O)O)[C@@H](C)CC | Mitogen-activated protein kinase 14 | enzyme activity, inhibitor, fluorescence | – | pH 7.4 | 9 µM |
| N=C(N)NCCC[C@H](NC(=O)[C@@H]1CCCN1C(=O)[C@H](N)Cc1ccccc1)C(=O)CCl | Furin (FURIN, Homo sapiens, UniProt P09958) | enzyme activity, inhibitor | – | together with: pERTKR-AMC 5 µM | > 10 µM |
| O=[N+]([O-])c1ccc(S(=O)(=O)Oc2ccc(/C=N/NS(=O)(=O)c3cc(Cl)ccc3Cl)cc2)cc1 | CA2 | enzyme activity, inhibitor, absorbance | – | – | 0.0264 µM |
| C[C@H](N)C(=O)N[C@@H](CS)C(=O)N[C@@H](CC(N)=O)C(=O)N[C@@H](Cc1ccccc1)C(=O)N[C@@H](CO)C(=O)N[C@H](C(=O)N[C@@H](Cc1ccccc1)C(=O)N[C@@H](CS)C(=O)N[C@@H](CCCNC(=N)N)C(N)=O)[C@@H](C)O | Pyruvate kinase PKM (PKM, Homo sapiens, UniProt P14618) | enzyme activity, inhibitor, fluorometric | – | 2 h, 37 °C, enzyme 500 nM | 229 µM |
| CN(C)S(=O)(=O)c1ccc2nnn(OCc3ccc(C(C)(C)C)cc3)c2c1 | CTSL | enzyme activity, inhibitor, FRET | – | – | > 100 µM |
| CN(C)CCCN1C(=O)CSC1c1ccc(F)cc1 (centres unmarked) | uncharacterized protein (Anopheles gambiae, UniProt Q7QFG0) | enzyme activity, inhibitor, Ellman | – | together with: 1 mM acetylthiocholine | 233 µM |
| O=C(O)C1=C[C@H](O)[C@@H](NC(=O)c2ccc(-c3ccccc3)cc2)[C@H]([C@H](O)[C@H](O)CO)O1 | Sialidase-3 (Homo sapiens, UniProt Q9UQ49) | enzyme activity, inhibitor | – | – | > 500 µM |
| CC(C)NCCN1C(=O)CSC1c1ccc(Cl)cc1Cl (centres unmarked) | uncharacterized protein (Apis mellifera, UniProt A0A7M6W5G5) | enzyme activity, inhibitor, Ellman | – | together with: 1 mM acetylthiocholine | 22 µM |
| Cc1nc(N2CCC(N(C)c3cc(C(=O)NCCN4CCCC4)cnn3)CC2)nc(C)c1CC(C)C | CYP2D6 | enzyme activity, inhibitor | – | – | 5.97 µM |
| CNC(=O)C[C@H](Cc1ccc(F)cc1)NC(=O)[C@@H](Cc1ccc(Cl)cc1Cl)NC(=O)[C@H](N)Cc1ccccc1C#N | CTSL | enzyme activity, inhibitor | – | – | > 10 µM |
| O=C(O)C(/C=C/c1c(Cl)cccc1Cl)=N\Nc1nc(-c2ccc([N+](=O)[O-])cc2)cs1 | Cholinesterase (BCHE, Equus caballus, UniProt P81908) | enzyme activity, inhibitor | – | – | 7.56 µM |
| CN(C)S(=O)(=O)c1ccc2nnn(OCc3cccc4cccnc34)c2c1 | CTSL | enzyme activity, inhibitor, FRET | – | – | > 100 µM |
| CCCN(CCCC[C@H](NC(=O)[C@H](CCCN1CCOCC1)NC(=O)[C@@H](NC(=O)[C@H](Cc1ccccc1)NC(=O)c1ccc(C(C)(C)C)cc1)C(C)C)C(=O)N[C@@H](CO)C(N)=O)C1CC2CCC1C2 (some centres unmarked) | Chromobox protein homolog 7 (Homo sapiens, UniProt O95931) | ligand displacement, TR-FRET | – | – | 4.7 µM |

| SMILES | target | assay | test system | conditions | IC50 |
| --- | --- | --- | --- | --- | --- |
| CCCCCCCCCCCCCCCCCC(=O)NC[C@H]1CC[C@H](C(=O)N[C@@H](CCC(=O)NCCCOCCOCCOCCCNC(=O)COCC(=O)N[C@@H](Cc2ccc(O)cc2)C(=O)NC(C)(Cc2ccccc2)C(=O)N[C@@H](CC(C)C)C(=O)N[C@@H](CCCC)C(=O)N[C@@H](CCCNC(=N)N)C(=O)N2CCC[C@H]2C(=O)N[C@@H](CCCNC(=N)NC)C(=O)N[C@@H](CC(N)=O)C(N)=O)C(=O)O)CC1 (some centres unmarked) | Neuropeptides B/W receptor type 1 (NPBWR1, Homo sapiens, UniProt P48145) | β-arrestin recruitment, antagonist | – | together with: 10 nM neuropeptide W-23 | 2.6 µM |
| O=C(c1cc(Cc2n[nH]c(=O)c3ccccc23)ccc1F)N1CC(CNC2CC2)C1 | Poly [ADP-ribose] polymerase 2 (PARP2, Homo sapiens, UniProt Q9UGN5) | enzyme activity, inhibitor | – | – | 0.003 µM |
| O=C(Cc1ccccc1)N[C@H](C(=O)O)[C@@H]1N=C(C(=O)O)C(CS[C@H](Cc2ccccc2)C(=O)O)CS1 (some centres unmarked) | Metallo-beta-lactamase IMP-28 (Klebsiella oxytoca, UniProt G4WB26) | enzyme activity, inhibitor | – | together with: nitrocefin | 0.64 ± 0.05 µM |
| CC[C@H](C)[C@H](NC(=O)[C@@H]1CCCN1C(=O)[C@@H]1CCCN1C(=O)[C@@H]1CCCN1C(=O)[C@@H]1CCCN1C(=O)[C@@H](NC(=O)[C@H](CCCNC(=N)N)NC(=O)[C@H](CO)NC(=O)[C@H](CCCCN)NC(=O)[C@H](CCCCN)NC(=O)[C@H](C)NC(=O)[C@@H](N)Cc1ccc(O)cc1)C(C)C)C(=O)N[C@@H](CC(C)C)C(=O)N[C@@H](CC(C)C)C(=O)N[C@@H](CO)C(=O)N[C@@H](CCCNC(=N)N)C(=O)O | Mitogen-activated protein kinase 14 | enzyme activity, inhibitor, fluorescence | – | pH 7.4 | 147 µM |
| CC(C)Oc1c(NC(=O)c2ccc(NC(=O)[C@H](CC(N)=O)NC(=O)c3ccc(/N=N/c4ccccc4)cc3)cc2)ccc(C(=O)N/N=C/c2ccc(C(=O)O)cc2)c1O | DNA gyrase (gyrA/gyrB, Escherichia coli, UniProt P0AES4+P0AES6) | DNA supercoiling, inhibitor | – | 30 min, 37 °C, after 1 h irradiation at 365 nm | 1 µM |
| CC[C@H](C)[C@H](NC(=O)[C@H](CCCNC(=N)N)NC(=O)[C@H](C)NC(=O)[C@H](CS)NC(=O)[C@H](CCCNC(=N)N)NC(=O)[C@H](CO)NC(=O)CNC(=O)[C@H](C)NC(=O)[C@@H](N)Cc1ccc(O)cc1)C(=O)N[C@@H](Cc1ccccc1)C(=O)N[C@@H](CCCNC(=N)N)C(=O)N[C@@H](CC(C)C)C(=O)N[C@H](C(=O)N[C@@H](CC(C)C)C(=O)N[C@@H](CCC(N)=O)C(=O)N[C@@H](CCCCN)C(=O)O)C(C)C | Mitogen-activated protein kinase 14 | enzyme activity, inhibitor, fluorescence | – | pH 7.4 | 9.49 µM |
| O=C(CCc1ccc(Br)cc1)N[C@H]1CCOC1=O | Transcriptional activator protein LasR (lasR, Pseudomonas aeruginosa, UniProt P25084) | reporter gene, antagonist | Escherichia coli, JLD271 with LasR plasmid | together with: OdDHL 0.5 nM | 0.12 µM |
| O=C(O)CCn1c(=O)oc2cc(Cl)c(Cl)cc21 | cGMP-inhibited 3',5'-cyclic phosphodiesterase 3A (PDE3A, Homo sapiens, UniProt Q14432) | enzyme activity, inhibitor | – | – | > 100 µM |
| Cc1ccc(C2=CCC(C)(C)c3ccc(C(=O)Nc4ccc(C(=O)O)cc4)cc32)cc1 | Retinoic acid receptor gamma (RARG, Homo sapiens, UniProt P13631) | – | – | – | 2.4 µM |
| CC(C)N1CCCCC1C(=O)NC(Cc1ccc(-c2ccccc2)cc1)B(O)O (centres unmarked) | PSMB6/PSMB7 (Homo sapiens, UniProt P28072+Q99436) | β1c caspase-like activity, inhibitor | – | constitutive proteasome, together with: Z-LLE-AMC | > 10 µM |
| O=S(=O)(N/N=C/c1ccc(OS(=O)(=O)c2ccc(Br)cc2)cc1)c1ccc(Cl)cc1 | CA2 | enzyme activity, inhibitor, absorbance | – | – | 0.108 µM |
| Cc1ccccc1COn1nnc2ccc(S(=O)(=O)N(C)C)cc21 | CTSL | enzyme activity, inhibitor, FRET | – | – | > 100 µM |
| CC(C)C[C@H](NC(=O)[C@H](CC(C)C)NC(=O)[C@H](CC(C)C)NC(=O)[C@H](CCCNC(=N)N)NC(=O)[C@H](CCCCN)NC(=O)[C@@H]1CCCN1C(=O)[C@H](CCCCN)NC(=O)[C@@H]1CCCN1C(=O)CNC(=O)[C@H](CCCNC(=N)N)NC(=O)[C@H](CCCCN)NC(=O)[C@H](CCCNC(=N)N)NC(=O)[C@H](C)NC(=O)[C@@H](N)Cc1ccc(O)cc1)C(=O)N[C@@H](CCC(N)=O)C(=O)N[C@@H](CCCNC(=N)N)C(=O)O | Mitogen-activated protein kinase 14 | enzyme activity, inhibitor, fluorescence | – | pH 7.4 | 3.64 µM |
| CCCCCCCCCCCCCCN(O)C(=O)CCCCC[C@@H]1NC(=O)[C@H]2CCCN2C(=O)[C@H](Cc2ccccc2)NC(=O)[C@H](Cc2ccccc2)NC1=O | Histone deacetylase 1 (HDAC1, Homo sapiens, UniProt Q13547) | enzyme activity, inhibitor, fluorescence | – | – | 0.078 µM |
| CN(C)CCCN1C(=O)CSC1c1ccc(Cl)cc1 (centres unmarked) | uncharacterized protein (Anopheles gambiae, UniProt Q7QFG0) | enzyme activity, inhibitor, Ellman | – | together with: 1 mM acetylthiocholine | 186 µM |
| CC(C)C[C@H](NC(=O)CNC(=O)[C@H](CCCNC(=N)N)NC(=O)[C@H](CCCNC(=N)N)NC(=O)[C@H](C)NC(=O)[C@H](CS)NC(=O)[C@H](CC(C)C)NC(=O)[C@H](C)NC(=O)[C@@H](N)Cc1ccc(O)cc1)C(=O)N[C@@H](Cc1ccc(O)cc1)C(=O)N[C@@H](CS)C(=O)N[C@@H](CC(C)C)C(=O)N[C@@H](CO)C(=O)N[C@@H](CC(C)C)C(=O)N[C@@H](CC(=O)O)C(=O)N[C@@H](Cc1c[nH]cn1)C(=O)O | Mitogen-activated protein kinase 14 | enzyme activity, inhibitor, fluorescence | – | pH 7.4 | 49.2 µM |
